Results gathered from unrelated publications.
Each numbered part is a random draw from the data of one study; scales do not carry over between parts. Substitutions count along the parent as printed.

Set 1 — technique: EMSA with sequencing; molecule type: double-stranded DNA, one strand shown; sample: in vitro; concentration: 10 and 20 nM; baseline: negative control set to 0; reading: higher = stronger binding; endpoint: normalised bound fraction
Target: Hepatocyte nuclear factor 3-alpha (Foxa1, Mus musculus, UniProt P35582, residues 1-468, full length assumed)
Setting: whole designed probe, mean of two concentrations, ends assumed
Target sequence (chain): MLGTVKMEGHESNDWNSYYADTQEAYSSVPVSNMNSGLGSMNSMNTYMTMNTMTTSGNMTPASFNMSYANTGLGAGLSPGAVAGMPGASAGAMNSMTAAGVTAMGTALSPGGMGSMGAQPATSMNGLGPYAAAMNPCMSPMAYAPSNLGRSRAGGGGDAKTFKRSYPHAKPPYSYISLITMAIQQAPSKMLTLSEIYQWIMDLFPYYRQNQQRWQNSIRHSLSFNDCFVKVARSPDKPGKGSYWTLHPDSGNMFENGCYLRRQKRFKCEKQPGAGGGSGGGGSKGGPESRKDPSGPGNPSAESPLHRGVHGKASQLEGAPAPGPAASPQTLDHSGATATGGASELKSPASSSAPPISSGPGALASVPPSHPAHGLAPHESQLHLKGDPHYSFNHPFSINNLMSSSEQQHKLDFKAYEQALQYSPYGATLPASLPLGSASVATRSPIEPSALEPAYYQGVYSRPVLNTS
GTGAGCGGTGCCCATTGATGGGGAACTTCTGGTAACTCCAACTTTTGGCTCATTTGTGGGTCAGACAGATCTGAGAAGCTTGGTTTTTTTTTACTCTGTCTCAGGTACTTTATATTTAGAGATTACATTCCTAGCCAGAGAAGCATTTATGTAATCTCTCTCTATATTTAATGACTCAGTTTAAGAAAATGCTTACAATAATTGAGGTCTCCTTGTTTCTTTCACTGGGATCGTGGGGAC: -0.00347 ratio
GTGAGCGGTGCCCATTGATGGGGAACTCCTTTATCCCAACATGTTTATACAGACAAAACCAGGTTAAAATCGACACAAGGTCAACTTGAAATGGGGAGACAAGAGGAAGGTGTCACAAAATAAACATGAAGTCTTGTGTACAAGCATCTGCAGAAGAGTTCAGCCTCACCACTTGGGTAATGCTGTTGGAATGTGGTCTGGGTTCACTGTATTTGAATGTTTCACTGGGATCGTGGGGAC: 0.398 ratio
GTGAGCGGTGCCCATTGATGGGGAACATCTTCCCCCTCTTCCTTGCCCCACCAGCTCACCTTCCCGGGTTATTTGCACAAAGGAAAATAAATAAAGCCGGCATTCGTTAACGCAGTTCTGGCGCAAACTGCTGTTTGCTCTGCATGAATCATGGTCCTTACGCGACGCCAGGCTCCGGGAGAGCAAAGCACCGTGTCAGGCGCATGATCCGGGGTGGCCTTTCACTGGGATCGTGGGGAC: 0.378 ratio
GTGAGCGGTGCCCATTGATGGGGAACGGGTTCTTCTGAAGGCACATTGCACCTTCTAGAAGGGTATGACTCAGAAGGAAAGAGAGAAAAACCTCTACTGGCAAGAGGAAATGGCTGCAGTGTTTACTTTATCTGAAAATGGCACACGCTTTTATTAAGACATAAATGCCAGTGATGGATTCTGCTCTTGGCGTGTGGCTGTGCTCCCCAGCCCTGAGGTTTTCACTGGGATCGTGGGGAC: 0.403 ratio
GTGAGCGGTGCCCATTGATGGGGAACAACAATTTAATTCCATTTTTATCAATGATATCTTCTTCTATGGAAGAAAATTAAGATAATTCAATGTTTTCCTACATCATTTAATATAAGGTTTATTTACTCTTGGAAACTTCCATTCTTTATTGCTCCTCAACAATAGCAACCACAAAAATTCCCATAATTCTCTCTTTAAAGATCAACCAAAATTAAGGAATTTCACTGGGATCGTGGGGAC: 0.241 ratio

Set 2 — technique: protein-binding microarray; molecule type: double-stranded DNA, one strand shown; sample: in vitro; concentration: not given; reading: higher = stronger binding; endpoint: E-score
Target: Max dimerization protein 1, bHLH-zipper, MAX partner unstated (MXD1, Homo sapiens, UniProt Q05195, residues 56-136)
Setting: k-mer, scored over probes, only values ≥0.25
Target sequence (chain): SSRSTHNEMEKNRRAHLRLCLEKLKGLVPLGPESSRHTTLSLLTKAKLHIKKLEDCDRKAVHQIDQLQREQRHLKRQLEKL
CCATGCCA: 0.325
GAGCATGC: 0.392
CGCGCGCG: 0.253
CACGCTGG: 0.305
ACATGGCG: 0.37
TCACCCCA: 0.284
ACACGAGG: 0.458
CGGCCACG: 0.311
CATGGCTA: 0.306
ACGCGGTA: 0.303
AGAGCACG: 0.352
ACTCATGC: 0.329
CCCTCCCA: 0.343
CAATCACG: 0.271
CATGCGTA: 0.408
AATGCACG: 0.299
CCATGCAG: 0.317

Set 3 — technique: RNA Bind-n-Seq; molecule type: RNA; sample: in vitro; concentration: 200 nM; setting: whole 134-nt RNA, ends assumed; added: 150 mM KCl; baseline: input library; reading: higher = stronger binding; endpoint: log2 enrichment
Target: Fragile X messenger ribonucleoprotein 1, C-terminal low-complexity region (Fmr1, Mus musculus, UniProt P35922)
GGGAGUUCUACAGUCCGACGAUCGCAGGAAGUAAAAACAAAUGGAAAUGCUUCGGAUAGUGGCAGGGGUGGGGGUAAAUAAGGAAAGGGUGGGAUGGGAGUGGGUAAAGAGUUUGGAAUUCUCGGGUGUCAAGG: 0.0269
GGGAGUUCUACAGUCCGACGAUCGUCCUGUGCUACACAUCGUAUGUACCGAAUCGGGUUUUUUGGUUUUUUGGUUUUUUGGGAAAGUAUUAUGUUACGCCGUUCGGAUCUGCAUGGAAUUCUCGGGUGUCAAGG: -0.866
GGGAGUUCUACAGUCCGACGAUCGCAGGAAGUAAAAACAAAUGGAAAUGCUUCGGAUAGUGGCAGGGGUGGGGGCUGCUAAGGAAAGGGUGGGAUGGGAGUGGGUAAAGAGUUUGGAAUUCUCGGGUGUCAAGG: 0.25
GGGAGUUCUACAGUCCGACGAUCAAGUCCUGUGCUACACAUCGUAUGUACCGAAUCGGAAAAAGGGAAAAAGGAAAAAGGAAAGUAUUAUGUUACGCCGUUCGGAUCUGCACUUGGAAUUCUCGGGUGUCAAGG: -0.791
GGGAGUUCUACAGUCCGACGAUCCACAGACAACACGCACCCACACAGACACAGAGGGAAGGCGUUGGGAUGGGGACAGGGUGCACAGCAGGGCGGGGUAGGACCCCAGCCCCUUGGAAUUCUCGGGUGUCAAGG: 1.19
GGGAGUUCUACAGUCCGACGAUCUGGCCCUGGUGGCAUGCGGGGAGGAAGAGGUGGCCUCAUGGAUCGUGGUGGUCCCGGUGGAAUGUCCAGAGGUGGCCGUGGUGGAGACAGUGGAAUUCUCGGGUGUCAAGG: -0.179
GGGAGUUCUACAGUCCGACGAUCCCUGUGCUACACAUCGUAUGUACCGAAUCGGGGAAAAAAAGGGGAAAAAGGGGAAAGGGGAAAGUAUUAUGUUACGCCGUUCGGAUCUGCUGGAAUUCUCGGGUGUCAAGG: 0.109
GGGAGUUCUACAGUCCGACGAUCCACAGACAACACGCACCCACACAGACACAGAGGGAAGGGGUUGGGAUGGGGACAGGGUGCACAGCAGGGUGGGGUAGGACCCCAGCCCCUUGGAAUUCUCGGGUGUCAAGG: 1.26
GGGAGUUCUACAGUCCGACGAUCCAGAGACAACACGCACCCACACAGACACAGAGGGAAGGGGUUGGGAUGGGGACAGGGUGCACAGCAGGGCGGGGUAGGACCCCAGCCCCUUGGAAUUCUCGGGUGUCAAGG: 1.22

Set 4 — technique: DHFR PCA, deep sequencing; sample: yeast; added: (+)-ABA 710 µM; baseline: wild-type fitted maximum; reading: higher = stronger binding; endpoint: relative binding score
Target: ABI1, truncated, D143A, DHFR fusion (Arabidopsis thaliana)
Setting: methotrexate growth selection, single substitutions
Starting sequence: PYL1, truncated, DHFR fusion (Arabidopsis thaliana); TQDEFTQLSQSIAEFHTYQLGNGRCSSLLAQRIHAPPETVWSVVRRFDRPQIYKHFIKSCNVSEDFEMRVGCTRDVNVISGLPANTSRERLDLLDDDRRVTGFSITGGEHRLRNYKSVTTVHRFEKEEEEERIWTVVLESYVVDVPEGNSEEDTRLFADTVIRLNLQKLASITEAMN; partner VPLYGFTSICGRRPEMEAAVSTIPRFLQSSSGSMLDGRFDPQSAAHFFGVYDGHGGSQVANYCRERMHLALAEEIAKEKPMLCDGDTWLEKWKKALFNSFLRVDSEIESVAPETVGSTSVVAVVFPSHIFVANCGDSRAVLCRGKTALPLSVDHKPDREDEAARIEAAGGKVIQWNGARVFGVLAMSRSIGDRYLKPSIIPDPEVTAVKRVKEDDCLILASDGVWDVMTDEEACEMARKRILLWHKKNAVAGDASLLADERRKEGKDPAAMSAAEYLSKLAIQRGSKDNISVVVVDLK
G21D: 99.8%
T73D: 92.6%
L82R: 4.03%
T135C: 109%
H110C: 64.7%
S27F: 59.5%
V44M: 81.8%
F124Y: 110%
V100Q: 78%
I52L: 106%
D48P: 57.4%
E139K: 73%
S11W: 104%
L156A: 102%
S59E: 104%
S104P: -5.41%
F157M: 98.4%

Set 5 — target: CCNE2, cyclin fold, Cln2 fusion (human); technique: yeast growth competition, sequencing; sample: yeast; setting: weak parent motif; baseline: not given; reading: higher = stronger binding; endpoint: normalised enrichment score
Starting sequence: MICAL3 docking peptide (human); LQLRRQLSFSEDS; partner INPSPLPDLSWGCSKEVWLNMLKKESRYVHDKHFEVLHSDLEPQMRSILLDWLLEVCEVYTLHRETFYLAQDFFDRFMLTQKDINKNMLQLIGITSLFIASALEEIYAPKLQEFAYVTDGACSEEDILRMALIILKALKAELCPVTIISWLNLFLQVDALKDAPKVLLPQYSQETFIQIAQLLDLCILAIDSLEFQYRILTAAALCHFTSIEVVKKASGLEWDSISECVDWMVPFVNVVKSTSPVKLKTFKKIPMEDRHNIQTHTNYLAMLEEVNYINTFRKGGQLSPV
R5S: 0.053
S10K: 0.153
L3S: 0.434
S10C: 0.358
R4P: -0.0148
S8W: 0.328
L3W: 0.69
Q6H: -0.103
L3G: 0.659
S8L: 0.611
L7C: -0.0889
S10L: 0.719
S8F: 0.917

A few entries again (set 4):
D48P: 57.4%
S59E: 104%
T135C: 109%
H110C: 64.7%
S11W: 104%
S104P: -5.41%
